# Experimental data collected from several papers.
# Numbers after ± are the reported error.
# Rbpj: Rbpj 53-474 (Mus musculus, UniProt P31266)
# Chain of UniProt P31266 (whole entry, looked up): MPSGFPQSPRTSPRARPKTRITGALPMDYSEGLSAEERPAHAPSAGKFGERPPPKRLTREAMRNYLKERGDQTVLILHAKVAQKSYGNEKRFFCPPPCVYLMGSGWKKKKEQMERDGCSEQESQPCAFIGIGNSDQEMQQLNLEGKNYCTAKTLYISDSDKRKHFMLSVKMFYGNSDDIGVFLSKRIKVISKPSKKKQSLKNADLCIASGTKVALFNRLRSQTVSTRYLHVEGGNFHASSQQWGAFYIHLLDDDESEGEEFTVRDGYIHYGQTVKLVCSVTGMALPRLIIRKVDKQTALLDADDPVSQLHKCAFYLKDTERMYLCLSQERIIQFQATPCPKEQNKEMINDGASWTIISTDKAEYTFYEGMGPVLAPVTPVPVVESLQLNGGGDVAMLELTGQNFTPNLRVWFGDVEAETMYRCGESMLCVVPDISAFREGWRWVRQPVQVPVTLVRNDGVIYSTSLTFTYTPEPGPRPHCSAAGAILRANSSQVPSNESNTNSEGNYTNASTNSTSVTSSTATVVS
# B1: UGT1A9 (Homo sapiens, UniProt O60656); chain GKLLVVPMDGSHWFTMRSVVEKLILRGHEVVVVMPEVSWQLGRSLNCTVKTYSTSYTLEDLDREFKAFAHAQWKAQVRSIYSLLMGSYNDIFDLFFSNCRSLFKDKKLVEYLKESSFDAVFLDPFDNCGLIVAKYFSLPSVVFARGILCHYLEEGAQCPAPLSYVPRILLGFSDAMTFKERVRNHIMHLEEHLLCHRFFKNALEIASEILQTPVTEYDLYSHTSIWLLRTDFVLDYPKPVMPNMIFIGGINCHQGKPLPMEFEAYINASGEHGIVVFSLGSMVSEIPEKKAMAIADALGKIPQTVLWRYTGTRPSNLANNTILVKWLPQNDLLGHPMTRAFITHAGSHGVYESICNGVPMVMMPLFGDQMDNAKRMETKGAGVTLNVLEMTSEDLENALKAVINDKSYKENIMRLSSLHKDRPVEPLDLAVFWVEFVMRHKGAPHLRPAAHDLTWYQYHSLDVIGFLLAVVLTVAFITFKCCAYGYRKCLGKKGRVKKAHKSKTH
# B2: VCL 879-1066 (Homo sapiens, UniProt P18206-2); sequence looked up; chain EEKDEEFPEQKAGEVINQPMMMAARQLHDEARKWSSKGNDIIAAAKRMALLMAEMSRLVRGGSGTKRALIQCAKDIAKASDEVTRLAKEVAKQCTDKRIRTNLLQVCERIPTISTQLKILSTVKATMLGRTNISDEESEQATEMLVHNAQNLMQSVKETVREAEAASIKIRTDAGFTLRWVRKTPWYQ
# B3: enzyme (Bacillus pumilus, UniProt A8FFI9); chain EARSIAWSVDEFFKNREGTFVIQEVKEKSPWVYNKKRAKERFAPQSTFKVANALIGLQTGAVRDEYDIKYWDGVKREIDNWNRDHTLGSGMRDSVVWYYQAMARDIGEERMNHWVKAIHYGNKDISGGIDQFWLSSTLRISPIEQVRFLKQLYEETLPFDLKNMRTVKRMMVQEEEKHATLYGKTGSGSDIGWYVGFIKHEHKTYILATNIKGTGIEAKDITYRILKKYHLMEASV
# Chain of UniProt O15111 (whole entry, unmodified, looked up): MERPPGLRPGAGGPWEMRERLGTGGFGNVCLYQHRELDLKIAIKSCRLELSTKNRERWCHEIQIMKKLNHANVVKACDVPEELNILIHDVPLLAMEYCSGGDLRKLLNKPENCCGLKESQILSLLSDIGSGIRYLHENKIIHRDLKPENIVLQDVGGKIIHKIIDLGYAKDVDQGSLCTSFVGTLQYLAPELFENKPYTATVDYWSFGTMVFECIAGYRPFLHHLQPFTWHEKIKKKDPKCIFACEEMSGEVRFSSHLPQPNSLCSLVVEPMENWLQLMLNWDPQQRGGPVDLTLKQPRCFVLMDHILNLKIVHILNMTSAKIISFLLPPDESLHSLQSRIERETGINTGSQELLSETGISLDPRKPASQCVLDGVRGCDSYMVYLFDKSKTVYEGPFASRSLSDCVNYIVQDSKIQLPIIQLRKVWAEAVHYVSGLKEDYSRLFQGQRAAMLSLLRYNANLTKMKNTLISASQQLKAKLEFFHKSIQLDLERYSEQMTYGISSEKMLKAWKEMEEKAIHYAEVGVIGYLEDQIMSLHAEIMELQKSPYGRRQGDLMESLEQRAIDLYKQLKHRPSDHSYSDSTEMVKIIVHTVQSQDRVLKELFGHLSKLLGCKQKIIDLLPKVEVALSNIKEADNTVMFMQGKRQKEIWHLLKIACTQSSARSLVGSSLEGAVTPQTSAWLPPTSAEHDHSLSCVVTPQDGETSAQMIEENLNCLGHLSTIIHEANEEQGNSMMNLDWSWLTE
# Chain of UniProt Q9HD67 (whole entry, unmodified, looked up): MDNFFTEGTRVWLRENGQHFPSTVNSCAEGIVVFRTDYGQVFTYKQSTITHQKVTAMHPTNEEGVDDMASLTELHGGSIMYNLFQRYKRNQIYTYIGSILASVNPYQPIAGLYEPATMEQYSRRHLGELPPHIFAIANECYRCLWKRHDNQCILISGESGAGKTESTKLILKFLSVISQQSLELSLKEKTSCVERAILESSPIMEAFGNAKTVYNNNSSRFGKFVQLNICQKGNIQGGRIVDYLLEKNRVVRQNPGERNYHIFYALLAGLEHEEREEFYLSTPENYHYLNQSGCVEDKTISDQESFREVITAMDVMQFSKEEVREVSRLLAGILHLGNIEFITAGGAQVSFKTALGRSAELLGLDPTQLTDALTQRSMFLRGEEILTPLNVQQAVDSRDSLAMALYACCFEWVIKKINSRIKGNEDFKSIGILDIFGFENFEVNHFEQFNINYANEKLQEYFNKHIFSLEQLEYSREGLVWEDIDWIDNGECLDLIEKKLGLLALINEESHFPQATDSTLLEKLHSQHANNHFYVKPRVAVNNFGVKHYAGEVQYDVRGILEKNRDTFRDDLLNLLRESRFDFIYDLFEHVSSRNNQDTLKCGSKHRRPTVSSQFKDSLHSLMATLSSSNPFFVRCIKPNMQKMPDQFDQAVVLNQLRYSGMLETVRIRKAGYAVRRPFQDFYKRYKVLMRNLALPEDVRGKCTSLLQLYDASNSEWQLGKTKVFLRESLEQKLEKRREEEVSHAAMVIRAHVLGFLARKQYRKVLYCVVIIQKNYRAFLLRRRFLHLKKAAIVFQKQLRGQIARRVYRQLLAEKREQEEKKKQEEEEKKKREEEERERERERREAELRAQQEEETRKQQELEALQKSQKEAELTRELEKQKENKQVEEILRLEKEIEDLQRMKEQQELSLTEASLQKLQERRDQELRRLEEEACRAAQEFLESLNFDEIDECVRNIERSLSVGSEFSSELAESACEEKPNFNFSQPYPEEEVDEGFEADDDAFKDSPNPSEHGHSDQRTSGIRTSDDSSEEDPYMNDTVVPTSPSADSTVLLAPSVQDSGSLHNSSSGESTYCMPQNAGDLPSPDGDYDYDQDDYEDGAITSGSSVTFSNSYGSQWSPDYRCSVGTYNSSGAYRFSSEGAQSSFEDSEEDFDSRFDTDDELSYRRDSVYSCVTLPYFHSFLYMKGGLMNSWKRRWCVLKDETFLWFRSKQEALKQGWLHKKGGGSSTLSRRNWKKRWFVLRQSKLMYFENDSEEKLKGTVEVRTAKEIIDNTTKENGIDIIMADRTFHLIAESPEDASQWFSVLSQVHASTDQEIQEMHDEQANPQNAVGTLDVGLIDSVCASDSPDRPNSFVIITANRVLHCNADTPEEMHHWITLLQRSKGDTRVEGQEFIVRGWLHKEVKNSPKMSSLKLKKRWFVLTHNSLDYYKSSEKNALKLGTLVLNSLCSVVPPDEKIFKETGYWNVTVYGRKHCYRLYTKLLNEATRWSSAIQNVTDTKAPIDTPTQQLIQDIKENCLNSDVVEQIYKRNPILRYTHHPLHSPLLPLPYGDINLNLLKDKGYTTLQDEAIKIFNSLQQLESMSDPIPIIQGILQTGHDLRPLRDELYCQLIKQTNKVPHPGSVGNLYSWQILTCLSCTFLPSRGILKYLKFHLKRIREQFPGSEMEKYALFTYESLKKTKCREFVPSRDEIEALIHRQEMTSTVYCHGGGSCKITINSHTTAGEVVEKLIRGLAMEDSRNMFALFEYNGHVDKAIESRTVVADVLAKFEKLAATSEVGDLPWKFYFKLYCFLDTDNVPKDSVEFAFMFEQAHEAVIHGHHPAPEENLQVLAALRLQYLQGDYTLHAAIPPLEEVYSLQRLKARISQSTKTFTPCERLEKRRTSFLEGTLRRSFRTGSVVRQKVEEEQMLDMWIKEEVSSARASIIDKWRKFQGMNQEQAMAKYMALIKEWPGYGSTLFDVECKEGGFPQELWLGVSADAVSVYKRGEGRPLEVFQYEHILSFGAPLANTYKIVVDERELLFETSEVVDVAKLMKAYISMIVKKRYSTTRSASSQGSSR
# Chain of UniProt Q12798 (whole entry, unmodified, looked up): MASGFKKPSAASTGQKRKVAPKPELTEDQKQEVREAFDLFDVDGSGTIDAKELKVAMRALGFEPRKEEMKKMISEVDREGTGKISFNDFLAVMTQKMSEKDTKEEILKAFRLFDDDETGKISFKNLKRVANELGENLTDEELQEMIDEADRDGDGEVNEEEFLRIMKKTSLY
# Chain of UniProt Q8IY67 (whole entry, unmodified, looked up): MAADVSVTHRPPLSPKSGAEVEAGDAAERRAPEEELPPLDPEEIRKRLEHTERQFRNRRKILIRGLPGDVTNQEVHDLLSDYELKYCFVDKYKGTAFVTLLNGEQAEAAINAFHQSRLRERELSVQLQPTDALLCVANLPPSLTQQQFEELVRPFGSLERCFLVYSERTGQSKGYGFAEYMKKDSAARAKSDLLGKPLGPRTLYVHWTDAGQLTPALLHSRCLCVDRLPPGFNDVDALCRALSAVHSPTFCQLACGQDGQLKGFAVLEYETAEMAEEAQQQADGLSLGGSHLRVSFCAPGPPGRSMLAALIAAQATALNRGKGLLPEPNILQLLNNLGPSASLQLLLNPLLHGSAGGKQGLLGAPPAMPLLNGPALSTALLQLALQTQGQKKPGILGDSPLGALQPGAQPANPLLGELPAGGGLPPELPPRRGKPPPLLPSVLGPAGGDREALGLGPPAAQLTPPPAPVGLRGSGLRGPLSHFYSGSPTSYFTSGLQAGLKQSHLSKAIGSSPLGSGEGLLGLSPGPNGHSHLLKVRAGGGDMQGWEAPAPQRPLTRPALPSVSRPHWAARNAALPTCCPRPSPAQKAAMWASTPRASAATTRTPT
Substance,tested on,assay,test system,setting,how to read,quantity,result
"Ac-SQHNRQLLRGALRRWK-NH2 (SFI1 repeat 18, 677-692 (Homo sapiens); N-acetyl; C-terminal amide)","CETN1, phosphothreonine (Homo sapiens, UniProt Q12798)",ITC,peptide,"pH 7.5, 30 °C, one-site model, together with: CaCl2 1 mM",,ΔH,-39.4 kcal/mol
"KWDTANNPLYKEATSTFTNITYRGT (ITGB3 764-788 (Homo sapiens, UniProt P05106); sequence looked up)",Myom1 IgC2 domain 4 (Mus musculus),ITC,peptide,,,ΔH,-0.167 ± 0.0239 kcal/mol
B1 (UGT1A9),COc1ccc(-c2oc3cc(OC)ccc3c(=O)c2O)cc1,steady-state kinetics,,"pH 7.4, 37 °C",,Vmax/Km,46000 µL/min/mg
"MENVKKATATTTWMVPTRQ (L3MBTL3 52-70 A69R (Homo sapiens, UniProt Q96JM7-2); sequence looked up)",Rbpj,ITC,peptide,"pH 6.5, 25 °C, NaCl 150 mM",,ΔH,-13.8 kcal/mol
"KLLITIHDRKEFAKFEEERARAKW (ITGB3 742-765 (Homo sapiens, UniProt P05106); sequence looked up)",Myom1 IgC2 domains 4-5 C1354S (Mus musculus),ITC,peptide,,,ΔH,-0.406 ± 0.215 kcal/mol
B2 (VCL 879-1066),"RAVER1 59-130 (Homo sapiens, UniProt Q8IY67)",ITC,,"23 °C, NaCl 150 mM",,ΔH,-15.1 ± 0.5 kcal/mol
"NFKBIA peptide to 317 C308L, C-terminal amide (Homo sapiens)","CHUK 10-667 S176E/S180E (Homo sapiens, UniProt O15111)",ITC,,,,ΔH,-13.7 kcal/mol
MMP2 fragment F297A/R368A (Homo sapiens),"COL1A1/COL1A2 denatured, gelatin (Homo sapiens)",DQ-gelatin fluorescence,,"10 nM, 25 °C",higher = faster hydrolysis,hydrolysis rate,0.1 RFU/s
"MENVKKATATTTWMVPTAQ (L3MBTL3 52-70 (Homo sapiens, UniProt Q96JM7-2); sequence looked up)",Rbpj,ITC,peptide,"pH 6.5, 25 °C, NaCl 150 mM",,ΔH,-13.1 kcal/mol
B3 (enzyme),C[C@@H](O)[C@H]1C(=O)N2C(C(=O)O)=C(S[C@@H]3CN[C@H](C(=O)N(C)C)C3)[C@H](C)[C@H]12,steady-state kinetics,,pH 7,,kcat,0.014 ± 0.001 s⁻¹
"ARSPLLPVSVPTAPEVSEESHKPTEDSANVYEQDDLSEQMASLEGLMKQLNAITGSAF (DCC 1390-1447 (Homo sapiens, UniProt P43146); sequence looked up)","MYO10 MyTH4-FERM 1486-2058 del1872-1891 (Homo sapiens, UniProt Q9HD67)",ITC,peptide,"pH 8.5, 20 °C, NaCl 150 mM",,ΔH,-4.98 ± 0.04 kcal/mol
"MENVKAATATTTWMVPTAQ (L3MBTL3 52-70 K57A (Homo sapiens, UniProt Q96JM7-2); sequence looked up)",Rbpj,ITC,peptide,"pH 6.5, 25 °C, NaCl 150 mM",,ΔH,-11.9 kcal/mol
SIIVFEKL,OT-I CD8+ T cells,,peptide,"concentration not given, primed 5 d, OVA257 100 ng/mL restimulation, together with: 20 ng/mL TGF-beta1 from day 2",,IFN-gamma+ cells,30.4%

# A few entries again:
Substance,tested on,assay,test system,setting,how to read,quantity,result
B3 (enzyme),C[C@@H](O)[C@H]1C(=O)N2C(C(=O)O)=C(S[C@@H]3CN[C@H](C(=O)N(C)C)C3)[C@H](C)[C@H]12,steady-state kinetics,,pH 7,,kcat,0.014 ± 0.001 s⁻¹
